Experimental data pooled from the literature.
Lines come from different studies, so protocols differ. ± gives the spread as reported.
Organism: Escherichia coli

Structure (SMILES)	read-out	technique	strain	tested at	time	temperature	inhibition zone [mm]
Cc1cc([N+](=O)[O-])ccc1NC(=O)CSc1nc2ccccc2c(=O)n1-c1ccc(S(N)(=O)=O)cc1	microbial growth	well diffusion	ATCC25922	500 µg/mL	24 h	–	32
CCOC(=O)c1cnc(N/N=C/c2c(-c3ccc(F)cc3)nc3ncccn23)s1	microbial growth	well diffusion	ATCC25922	100 µg/mL	–	–	15
O=C(NC(=S)Nc1nc(-c2ccccc2)cc(-c2ccc(Cl)cc2)n1)c1ccc(Cl)cc1	–	–	–	concentration not given	24 h	37 °C	6
S=c1n(CN2CCN(Cc3ccccc3)CC2)nc(C23CC4CC(CC(C4)C2)C3)n1-c1ccccc1	microbial growth	disc diffusion	IFO3301	200 µg/disc	24 h	–	12
CCOC(=O)c1cnc(N/N=C/c2c(-c3ccc(Br)cc3)nc3ncccn23)s1	microbial growth	well diffusion	ATCC25922	100 µg/mL	–	–	14
C=C(CO)C(=O)O[C@H]1CC(=C)[C@@H]2C[C@H](O)[C@](O)(CCl)[C@@H]2[C@H]2OC(=O)C(=C)C12 (stereo partly shown)	–	–	–	concentration not given	–	–	9 ± 1.3
CCOc1ccc(NC(=O)CSc2nc3ccccc3c(=O)n2-c2ccc(S(N)(=O)=O)cc2)cc1	microbial growth	well diffusion	ATCC25922	500 µg/mL	24 h	–	12
COc1c2c(cc3oc(=O)cc(-c4ccc(Cl)cc4)c13)C(=O)c1cc(C)cc(O)c1C2=O	microbial growth	disc diffusion	MTCC739	100 µg/disc	–	–	15
Cn1c(C23CC4CC(CC(C4)C2)C3)nn(CCN2CCCC2)c1=S	microbial growth	disc diffusion	IFO3301	200 µg/disc	24 h	–	17
COc1cc(OC)c2c(c1)C(=O)c1cc3oc(=O)cc(-c4ccc(Cl)cc4)c3c(O)c1C2=O	microbial growth	disc diffusion	MTCC739	100 µg/disc	–	–	16
CCc1ccc(NC(=O)CSc2nc3ccccc3c(=O)n2-c2ccc(S(N)(=O)=O)cc2)cc1	microbial growth	well diffusion	ATCC25922	500 µg/mL	24 h	–	14
Cc1ccc(NC(=O)C2C(=O)C(c3ccccc3)c3ccc4c(c32)C(=O)c2ccccc2C4=O)cc1 (stereo not shown)	microbial growth	disc diffusion	MTCC739	100 µg/mL	24 h	–	8
Cc1cc(O)c2c(c1)C(=O)c1cc3oc(=O)cc(-c4ccc(Cl)cc4)c3c(O)c1C2=O	microbial growth	disc diffusion	MTCC739	100 µg/disc	–	–	10
O=C1c2ccccc2C(=O)c2c1ccc1c2C(C(=O)Nc2ccccc2Cl)C(=O)C1c1ccccc1 (stereo not shown)	microbial growth	disc diffusion	MTCC739	100 µg/mL	24 h	–	10
COc1cc(NC(=O)CSc2nc3ccccc3c(=O)n2-c2ccc(S(N)(=O)=O)cc2)cc(OC)c1OC	microbial growth	well diffusion	ATCC25922	500 µg/mL	24 h	–	13
Cc1cc(O)cc2c1C(=O)c1c(cc3oc(=O)cc(C)c3c1O)C2=O	microbial growth	disc diffusion	MTCC739	100 µg/disc	–	–	10
CCc1ccccc1NC(=O)CSc1nc2ccccc2c(=O)n1-c1ccc(S(N)(=O)=O)cc1	microbial growth	well diffusion	ATCC25922	500 µg/mL	24 h	–	30
FC(F)(F)c1cc(CSc2nnc(C34CC5CC(CC(C5)C3)C4)n2-c2ccccc2)cc(C(F)(F)F)c1	microbial growth	disc diffusion	IFO3301	200 µg/disc	24 h	–	20
Cc1c2c(cc3oc(=O)cc(-c4ccc(O)cc4)c13)C(=O)c1cccc(O)c1C2=O	microbial growth	disc diffusion	MTCC739	100 µg/disc	–	–	10
CN(C)CCn1nc(C23CC4CC(CC(C4)C2)C3)n(C)c1=S	microbial growth	disc diffusion	IFO3301	200 µg/disc	24 h	–	10
Cc1cc(=O)oc2cc3c(c(C)c12)C(=O)c1c(O)cccc1C3=O	microbial growth	disc diffusion	MTCC739	100 µg/disc	–	–	8
CCOC(=O)c1sc(N/N=C/c2c(-c3ccccc3)nc3ncccn23)nc1C	microbial growth	well diffusion	ATCC25922	100 µg/mL	–	–	13

Some of these lines once more:
Structure (SMILES)	read-out	technique	strain	tested at	time	temperature	inhibition zone [mm]
CCc1ccccc1NC(=O)CSc1nc2ccccc2c(=O)n1-c1ccc(S(N)(=O)=O)cc1	microbial growth	well diffusion	ATCC25922	500 µg/mL	24 h	–	30
FC(F)(F)c1cc(CSc2nnc(C34CC5CC(CC(C5)C3)C4)n2-c2ccccc2)cc(C(F)(F)F)c1	microbial growth	disc diffusion	IFO3301	200 µg/disc	24 h	–	20
